Results pooled from the literature.
Lines come from different studies, so protocols differ. Numbers after ± are the reported error.

| SMILES | test | system | setting | scale | quantity | value |
| --- | --- | --- | --- | --- | --- | --- |
| O=C(O)/C=C/c1cccc(S(=O)(=O)Nc2ccccc2)c1 | – | human, mild liver dysfunction, plasma | intravenous, 400 mg/m^2 belinostat, cycle 1 day -7, geometric mean | reference: metabolite over belinostat | Cmax metabolic ratio | 0.0666 |
| Fc1ccc(NCc2cn(-c3ccccc3)nc2-c2ccc(OCc3ccccc3)cc2)cc1 | – | rat, gastric mucosa | oral, 60 mg/kg, 17 h | reference: control score subtracted | ulcer severity index | 1.03 ± 0.13 |
| CN1CCC[C@]1(C)/C=C/S(=O)(=O)NC(=O)Nc1c2c(cc3c1CCC3)CCC2 | – | human, plasma | oral, 12.5 mg twice daily, 14 days, multiple ascending dose | reference: day 14 over day 1 | accumulation ratio AUC(0-24) | 1.4 |
| N=C(N)NCCC[C@@H]1NC(=O)[C@H](Cc2c[nH]c3ccccc23)NC(=O)[C@@H](CC2CCCCC2)NC(=O)[C@@H]2CCCN2C(=O)[C@@H](NC(=O)CCc2ccccc2)CCCNC1=O | – | C57BL/6J mouse, plasma spinal cord | subcutaneous, 1 mg/kg single dose | – | MRT(0-last) | 48.6 min |
| O=C([O-])CN1CCN(CC(=O)[O-])CCN(CC(=O)NCC2CCC(C(=O)NC(Cc3ccc4ccccc4c3)C(=O)NCCCCC(NC(=O)NC(CCC(=O)O)C(=O)O)C(=O)O)CC2)CCN(CC(=O)[O-])CC1.[44Sc+3] (stereo not shown) | PET/CT dosimetry, OLINDA/EXM | human, spleen | – | – | organ absorbed dose | 0.248 mSv/MBq |
| COc1cc(NC(C)=O)c2c(c1O)-c1c(OC)c(OC)cc3c1C(C2)N(C)CC3 (stereo not shown) | – | rat liver homogenate | 0.5 µg/mL, 24 h, room temperature, post-preparative storage | – | remaining compound | 111 ± 4.2% |
| CC1=CC(C)=[N+]2C1=C(CO)c1c(C)cc(C)n1[B-]2(F)F | – | DMSO/MeOH 1:1 | 10 min, 510 nm irradiation 2.44 J/cm2 | – | photostability | stable |
| O=C(O)[C@@H]1C[C@@H](O)CN1C(=O)[C@@H]1CCCN1 | potentiometric titration | – | 40 °C, MAH-1 complex, added: Fe(III) | – | log beta | 11 |
| Cc1ccc(OCC(=O)O)cc1 | – | Sprague-Dawley rat, female, plasma | oral gavage, 30 mg/kg of parent drug | – | AUC(0-last) | 25900 ± 6260 ng·h/mL |
| CCOc1ccc2cc(-c3nn(CC4CCNCC4)c4ncnc(N)c34)ccc2n1 | – | piglets, crossbred | oral, 10 mg/kg twice daily, 2 h after dose 9, 7 days post infection | – | plasma concentration | 0.1 ± 0.1 µM |
| N#Cc1cc(C(=O)OCC[18F])c(C(F)(F)F)nc1N1CCN(C(=O)Cc2ccccc2)CC1 | dynamic PET | human, contralateral normal brain | intravenous | – | peak SUV | 2.19 ± 1.42 |
| Cn1c(=O)oc2ccc(-c3ccc(CC(C#N)NC(=O)C4CNCCCO4)c(F)c3)cc21 (stereo not shown) | – | human | oral, 10 mg once daily, treatment-related AE, multiple ascending dose | – | mouth ulceration incidence | 0% |
| CCCC[C@H](NC(=O)CNC(=O)CNC(=O)CN1CCN(CC(=O)O)CCN(CC(=O)O)CCN(CC(=O)O)CC1)C(=O)N[C@H]1CC(=O)NCCCC[C@@H](C(N)=O)NC(=O)[C@H](Cc2c[nH]c3ccccc23)NC(=O)[C@H](CCCNC(=N)N)NC(=O)[C@@H](Cc2ccccc2)NC(=O)[C@H](Cc2c[nH]cn2)NC1=O [gallium-67 labelled] | – | C57 mice, B16/F1 melanoma | 2 h | – | tumour to skin uptake ratio | 30.4 |
| NC12CNCCNCC(NCc3ccc(CNC(=O)CCCC(=O)NCc4ccc(-c5nncnn5)cc4)cc3)(CNCCNC1)CNCCNC2.[64Cu+2] | OLINDA dosimetry | osteogenic cells | pretargeting, 24-h interval | – | mean absorbed dose | 0.0897 rad/mCi |
| CCCC[C@H](NC(C)=O)C(=O)N[C@H]1CC(=O)NCCCC[C@@H](C(=O)N[C@@H](C(=O)N2CCC[C@@H]2C(N)=O)C(C)C)NC(=O)[C@H](Cc2c[nH]c3ccccc23)NC(=O)[C@H](CCCN=C(N)N)NC(=O)[C@@H](Cc2ccc3ccccc3c2)NC(=O)[C@@H]2CCCN2C1=O | – | healthy dogs, plasma | subcutaneous, 2.25 mg/kg per day, day 5 predose, median | – | plasma histamine | 12.3 ng/mL |
| CCCCCCCCCCCCCCCC(=O)N[C@@H](CCCCN)C(=O)N[C@@H](CCCCN)C(=O)N[C@@H](CO)C(=O)N[C@@H](CCCNC(=N)N)C(=O)N[C@@H](C)C(=O)N[C@@H](CC(C)C)C(=O)N[C@@H](Cc1ccccc1)C(N)=O | – | cynomolgus monkey, male | 30 mg/kg, day 1 | – | prothrombin time | 12 ± 0.6 s |
| CC(C)c1cnc(-c2cc(Cl)ccc2F)cc1Nc1ccncc1C(=O)NC(CO)CO | item: pyrexia | human patients | oral, dose not given, grade 4 | – | patients with related SAE | 0% |
| Cc1[nH]nc2c1N=C(c1ccccc1Cl)c1cnc(N3CCOCC3)cc1N2 | item: radioactivity | human male, urine and feces | oral, 10 mg | reference: dose | fraction absorbed | ≥ 30.9% |
| CCc1noc(CC)c1C(=O)O[C@H]1C(C)=C[C@]23C(=O)[C@@H](C=C(CO)[C@@H](O)[C@]12O)[C@H]1[C@@H](C[C@H]3C)C1(C)C | – | phosphate buffer | 24 h, pH 7.4, 37 °C | – | 20-isomer formed | 25% |
| C[C@H](NC(=O)c1ccc2c(c1)C(=O)OC21c2ccc(O)cc2Oc2cc(O)ccc21)C(=O)N[C@@H](CCCCN)C(=O)N[C@@H](C)C(=O)N[C@@H](CCCCN)C(=O)N[C@@H](C)C(=O)N[C@@H](CCCCN)C(=O)N[C@@H](C)C(=O)N[C@@H](CCCCN)C(=O)N[C@@H](C)C(=O)N[C@@H](CCCCN)C(=O)N[C@@H](C)C(=O)N[C@@H](CCCCN)C(=O)N[C@@H](C)C(=O)N[C@@H](CCCCN)C(=O)N[C@@H](C)C(=O)N[C@@H](CC(N)=O)C(=O)N[C@@H](C)C(=O)N[C@@H](CC(N)=O)C(=O)N[C@@H](C)C(=O)N[C@@H](CC(N)=O)C(=O)O | – | bovine, healthy cartilage explants | 30 µM, 24 h, 37 °C, 5-FAM labelled | reference: tissue over bath concentration | cartilage uptake ratio | 15 |
| CCCC(CCC)NC(=O)c1ccc(OC2OC(C(=O)O)C(O)C(O)C2O)c(OC)c1 (stereo not shown) | – | male Sprague-Dawley rat, plasma | oral, 50 mg/kg of parent drug | – | Tmax | 6 h |
| CC(C)(Sc1cc[n+]([O-])cc1-c1ccc(C#N)c2ccccc12)C(=O)OC1OC(C(=O)O)C(O)C(O)C1O (stereo not shown) | – | adult men, plasma | oral, 15 mg verinurad, mild renal impairment | reference: normal renal function | Cmax increase | 58% |
| CC[C@H](C)[C@H](NC(=O)[C@H](Cc1ccccc1)NC(=O)[C@H](CC(=O)O)NC(=O)[C@H](CCCCN)NC(=O)[C@H](Cc1ccccc1)NC(=O)[C@H](Cc1ccccc1)NC(=O)[C@H](CCCCN)NC(=O)[C@H](CCN)NC(=O)[C@H](CC(C)C)NC(=O)[C@H](CCCNC(=N)N)NC(=O)[C@H](CCSC)NC(=O)[C@H](C)N)C(=O)N[C@@H](CC(C)C)C(=O)N[C@@H](CCC(N)=O)C(=O)N[C@@H](CCCNC(=N)N)C(=O)N[C@@H](CCCCN)C(=O)N[C@@H](CCCCN)C(=O)O | circular dichroism | 20% TFE in PBS | 200 µM, pH 7.4, 25 °C | – | helicity | 15.4% |
| O=C(O)C1OC(OC2C(COS(=O)(=O)O)OC(OC3C(C(=O)O)OC(OC4C(COS(=O)(=O)O)OC(OC5C(C(=O)O)OC(OC6C(COS(=O)(=O)O)OC(OC7C(C(=O)O)OC(OC8C(COS(=O)(=O)O)OC(OC9C(C(=O)O)OC(OC%10C(COS(=O)(=O)O)OC(OC%11C(C(=O)O)OC(Oc%12ccc([N+](=O)[O-])cc%12)C(O)C%11O)C(NS(=O)(=O)O)C%10O)C(OS(=O)(=O)O)C9O)C(NS(=O)(=O)O)C8O)C(OS(=O)(=O)O)C7O)C(NS(=O)(=O)O)C6O)C(OS(=O)(=O)O)C5O)C(NS(=O)(=O)O)C4O)C(OS(=O)(=O)O)C3O)C(NS(=O)(=O)O)C2OS(=O)(=O)O)C(O)C(O)C1OC1OC(COS(=O)(=O)O)C(O)C(O)C1NS(=O)(=O)O (stereo not shown) | – | rat, testes | intravenous, 3600 µg/kg per day, 7 days, day 8 | – | organ-to-body weight ratio | 1.29 ± 0.06 |
| C=CCn1c2ccc([N+](=O)[O-])cc2c(=O)n1Cc1ccccc1 | resazurin | peritoneal macrophages, BALB/c mice | 48 h, 10% FBS | – | CC50 | 4.2 ± 0.1 µM |
| CC(C)[C@@H]1NC(=O)[C@@H](NC(=O)[C@H](Cc2ccc(O)cc2)NC(=O)[C@@H]2CCCN2C(=O)[C@H](C)N)CSSC[C@@H](C(=O)O)NC(=O)[C@H](CO)NC(=O)[C@H](Cc2c[nH]c3ccccc23)NC(=O)[C@H](CO)NC(=O)CNC(=O)[C@H](CCCNC(=N)N)NC(=O)[C@H](Cc2ccc(O)cc2)NC1=O | residual EphA4 binding inhibition | C2C12 conditioned medium | 200 µM, 37 °C | – | half-life | 8 to 12 h |
| NC(=S)N/N=C/c1ccccc1O | cyclic voltammetry | anhydrous DMF | Cu2+ complex, glassy carbon electrode | – | peak potential separation | 0.132 mV |
| CN(C)C(CNC(=O)Nc1cc(C(F)(F)F)ccc1N1CCOCC1)c1ccncc1 (stereo not shown) | – | mouse, C57BL/6J, urine | subcutaneous minipump infusion, 25 mg/kg/day, 4 days | – | urine concentration | 301 ± 55.3 ng/mL |
